Assay results collected from several papers.
Every numbered part comes from another study and shows a few of its results, in no order.

Sample 1
Target: Interferon regulatory factor 7, full length, phosphomimetic (IRF7, Homo sapiens, UniProt Q92985, residues 1-503, S101K/S471D/S472D/S475D/S476D/S477D/S483D/S484D/S487D)
Technique: protein-binding microarray
Molecule type: double-stranded DNA, one strand shown
Medium: in vitro
Tested at: 250 nM
Setting: 60-bp whole probe
With: salmon DNA 0.4 mg/ml
Reference: random background probes
Direction: higher = stronger binding
Constant ends, left off below: GCCTAGCAC … GTCTTGATTCGCTTGACGCTGCTG
Residues (chain): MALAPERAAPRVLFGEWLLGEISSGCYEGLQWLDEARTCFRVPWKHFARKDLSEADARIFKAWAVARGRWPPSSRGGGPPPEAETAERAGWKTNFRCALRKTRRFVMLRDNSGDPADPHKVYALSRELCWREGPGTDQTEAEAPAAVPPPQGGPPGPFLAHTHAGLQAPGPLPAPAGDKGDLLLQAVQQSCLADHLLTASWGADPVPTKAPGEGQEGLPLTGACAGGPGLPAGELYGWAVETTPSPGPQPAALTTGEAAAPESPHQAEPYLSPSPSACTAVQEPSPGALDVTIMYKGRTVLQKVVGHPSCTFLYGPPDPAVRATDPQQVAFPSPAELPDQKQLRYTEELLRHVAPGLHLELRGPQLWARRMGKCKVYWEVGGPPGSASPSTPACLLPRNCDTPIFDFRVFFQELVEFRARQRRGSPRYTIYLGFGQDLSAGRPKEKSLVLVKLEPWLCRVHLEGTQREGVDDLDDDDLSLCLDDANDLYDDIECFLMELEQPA
Oligonucleotide	log fluorescence [z-score]
TTAGAGTTCAGACTGGATTAGTGCTAG	-0.492
TCATAGTTGTGTCTTGCACTGTGCTAG	-0.428
TTAGATATTAGTCTCGATTAGTGCTAG	2.01
GACTGTTTCCTTATCCTGACGTGCTAG	2.23
GACGGTATCCTCTTCCTGACGTGCTAG	0.162
GTCGAACTGGGGACTGGAGACGTGCTA	-0.267
GACGGTTTCCGGTTTCGGGACGTGCTA	7.9
GACGGTCTCCTGCTGCTGACGTGCTAG	-0.359
TTAGATTGCAGTATCGATTAGTGCTAG	0.642
TTAGGACTGCTTATCCTTGAGTGCTAG	-0.126
TTAGGTCTCCGTCTCGGTTAGTGCTAG	0.343
TTAGATTTCAGTTTCGTTTAGTGCTAG	10
GACGGTTTACTTTTCCTGACGTGCTAG	0.95
TTAGGACTGGGACTCGGTTAGTGCTAG	0.883
TCAAGATTTTTTTTCCTACTGTGCTAG	1.07
TTAGATTTCAGTTCCGCTTAGTGCTAG	1.95

Sample 2
Target: RING finger protein unkempt homolog, zinc fingers 1-6, GST-SBP tag (UNK, Homo sapiens, UniProt Q9C0B0, residues 30-357)
Sequence of UniProt Q9C0B0 (30-357, looked up): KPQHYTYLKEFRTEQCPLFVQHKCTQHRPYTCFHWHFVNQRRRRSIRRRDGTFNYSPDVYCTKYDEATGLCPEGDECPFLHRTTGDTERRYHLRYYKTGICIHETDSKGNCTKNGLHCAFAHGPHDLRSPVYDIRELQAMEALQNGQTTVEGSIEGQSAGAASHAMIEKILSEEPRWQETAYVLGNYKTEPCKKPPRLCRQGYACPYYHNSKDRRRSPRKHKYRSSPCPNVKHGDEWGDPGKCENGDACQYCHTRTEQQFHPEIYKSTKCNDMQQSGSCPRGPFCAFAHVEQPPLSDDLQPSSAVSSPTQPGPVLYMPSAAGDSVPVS
Technique: RNA Bind-n-Seq
Molecule type: RNA
Medium: in vitro
Tested at: not given
Setting: RNA with constant flanks, ends assumed
Reference: input RNA pool
Direction: higher = stronger binding
Oligonucleotide	bound/input enrichment [ratio]
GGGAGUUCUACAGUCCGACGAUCCUCCUGUCUCGAUUUACUCGAAAUGAGUUUAAUCUGGAAAGCAAGAGCACCAUUGGAGCCGAGUUUGCAACAAGAAGCAUCCAGGUUGAUGGAAAAACAAUAAAGGCACAGAUAUGGGACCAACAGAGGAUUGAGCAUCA	0.225
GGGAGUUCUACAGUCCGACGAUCAUAAAGGAGGAAGAAGACGACAUUUCUGACAAGGGCAGUGAUUCUGAAGAGGAAGAAACCAACCGAGAUUCUCAGAGUGAGAAAGAAGAUGGUAGUGACAGGGAGUCUGAUAGAGAGCAACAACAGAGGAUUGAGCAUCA	0.629
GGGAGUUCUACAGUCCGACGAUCGAUUCUACCUCUGCAGUCAAAGAGAAAACAGCAACUUGCCACAGUUCCUCUUCUCCACCAACCGAUGCAGCAUCCGCAGAGCCCUAUGGCUUCCGUGCCUCAGUGUUAUUCGAUACAAUGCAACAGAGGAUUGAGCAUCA	0.138
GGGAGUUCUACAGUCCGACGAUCGCCUGGAGAUUUGCGCCCGCACAUGGUCAUUGGUUUUCCGAAAAGAGAGGGUAAAUUUAUACCGAAAUUUACAGGUAUUUGGGUAGUCAUUUAGACCGAGGGAGACCAGUGUUUCCAUUUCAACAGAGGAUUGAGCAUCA	0.207
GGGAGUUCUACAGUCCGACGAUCAGCAAAAAGAACAAUAUAUUUGCUCAGUUCAGGAAGAAUGAUCGAGACAAACAGAAGUUGACCGAGACAGUCGUGAAACAGCUGAGAAGUUUGGUGAAUGGUAUGUCCCAGCACAUGUAGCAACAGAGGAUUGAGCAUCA	0.248
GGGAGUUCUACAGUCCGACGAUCGAAGAAGCCUGCUUCACUCUCCAGUACCUAAACAAAUUGUCCAUGAAACCAGAACCUCUGUUCCGAAGUGUAGGCAAUACUAUUGAUCCUGUCAUUCUUUUCCAAAAAAUGGGAGUAGGUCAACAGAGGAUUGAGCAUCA	0.238
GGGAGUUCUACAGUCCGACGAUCUCUCUUUAUCCUCAGUUUAUGUUUCAUUUAAGAAGAUCUCCUUUCUUGCAAGUUUUUAACAACCGUCCUGAUGAGAGUUCAUACUAUCGUCACCAUUUCAUGCGUCAGGAUCUGACCCAGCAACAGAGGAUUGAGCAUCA	0.397
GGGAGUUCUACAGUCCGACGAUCGAAAAAGAGGAGGAAGUACAUGCUCGUUUACUUCAUUGUGUAAGCAAACAGAAAAUUUUACUCCGCCAGGCUAGAAGAACUCAGAAACAUUUGCAGAUGCUCCUGGCAAAGCAUGUUGUUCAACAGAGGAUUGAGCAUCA	0.124
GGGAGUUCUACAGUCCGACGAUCAGUGAUAUUCAUUUGGCAGAACAUCAUAAACAGGUGUUAUAUGAUGGGAAACUUGCAAGCCGCAUUGCCUUUACAUAUAAUGCUAAGGCCACUGAUGCUCAGCUCUGCCUGGAAUCAUCACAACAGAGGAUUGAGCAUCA	0.139
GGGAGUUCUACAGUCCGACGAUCGGCCAGGAACAGUCUUCACGGGGACAAAGAAUUUUAUCUAUUCCAAUUUGGCCCCCAAACCCCGGCAUCUCUCAGAACUGUGUUUAUGAGGCACAGCAGGUUCCCAAAGUAGAAAAAACACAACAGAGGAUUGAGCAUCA	0.642
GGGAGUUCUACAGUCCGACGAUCCCAAAACAUGUGAUAUCCCUUUAACCUGUGCACAGUCUGGAGGCAGUUUUAUUGAGUGAGCCGUUGAGUGAGAGAACAAAAUGCCCAGCAAAACUUCUGGCCUCCACAGUUUGCUGAUGCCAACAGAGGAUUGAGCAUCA	0.18

Sample 3
Target: Histone acetyltransferase KAT6A, winged helix 1, GST fusion (KAT6A, Homo sapiens, UniProt Q92794, residues 1-85)
Technique: protein binding microarray
Molecule type: double-stranded DNA, one strand shown
Medium: in vitro
Tested at: not given
Setting: 8-mer, flanks averaged, mean of 2 arrays, mostly near background
Reference: not given
Direction: higher = stronger binding
Target sequence (chain): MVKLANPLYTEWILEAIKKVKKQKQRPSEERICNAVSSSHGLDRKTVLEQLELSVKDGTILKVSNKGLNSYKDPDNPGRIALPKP
Oligonucleotide	E-score
GGCCGTAC	0.382
CATTGCAG	-0.214
CACTACCA	-0.134
ACGTCTTC	-0.0476
GAAGTATC	-0.11
CAACAGAG	-0.00313
AGCTGCCC	0.0705
AAGAGATT	-0.0515
GGTAGACC	0.0725
ATCTAAAC	-0.0822
AGAGAGAA	-0.259
CCACCTGC	-0.207
AACATTCT	-0.226
ACTTTTAT	-0.165
ACATTCGT	-0.178
CAGCCGTA	0.329
TACAGTAA	-0.164
AGTTCAGG	-0.159
TAATCTGA	-0.263
ATCTGATG	-0.116
CAACGACA	-0.113
GGTCCACC	-0.0741
CTGCTATA	-0.0573

Sample 4
Target: RNA binding protein fox-1 homolog 2, RRM domain, GST-SBP tag (RBFOX2, Homo sapiens, UniProt O43251-10, residues 100-194)
Technique: RNA Bind-n-Seq
Molecule type: RNA
Medium: in vitro
Tested at: 365 nM
Setting: natural RNA segment, single round, ends assumed
Reference: no-protein control
Direction: higher = stronger binding
Residues (chain): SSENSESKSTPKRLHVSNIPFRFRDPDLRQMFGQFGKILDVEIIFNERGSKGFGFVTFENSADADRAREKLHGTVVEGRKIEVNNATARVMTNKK
Oligonucleotide	RBNS enrichment (R)
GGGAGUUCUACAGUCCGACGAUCUGUGCAUAGGCAGCCCUCUCACGUCUUGAGGUCCGAAGCUGGGGUGGGGGUGUCCGUCAGUUAUUAGUGGAUGGAGAUUCCCACAGCAAGGCUGCAUUUGAAUGAUUUCCUGGAAUUCUCGGGUGCCAA	0.717
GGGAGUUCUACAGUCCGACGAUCAAGUACCUAUAAAACCCUGUACACACCUAGUUCAUAUUCCUCAUAAUUUAUCAACAAACACAAAAAAGUGUCUUACUUGAGAGCGAAUGAGUGUGUGUGUGUGUGUGUGUUGGAAUUCUCGGGUGCCAA	0.277
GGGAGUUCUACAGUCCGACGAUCACUUCCGGAGAGUUGUGGACUUUAUAGAUGAAGGGGUCAACAUUGGCUUAGAGGUGAAGAGCAAGACUGGCAAGCUCCAGGAUUUCAAAUCCUUCCUGCUUAAGGACUCAUGGAAUUCUCGGGUGCCAA	0.636
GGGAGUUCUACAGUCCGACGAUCUCCCCUGACUCCCGUCUCCAUCUGUCACGUGGUUCACCAUCAUCAGGCACCAGGCGCAAACUGCUUCCCGCUGUUGGCCAUCCCUUCCCCAGCCACAGGUGUCCCUGCCCUGGAAUUCUCGGGUGCCAA	0.438
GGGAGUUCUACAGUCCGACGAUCUUCUGGAGAGAUCUCACGUGGAUGGUACCGGUGCUCUGAGCACCACAGAUGUGAGCUACAGUUCGUUUCUGAAAGCUACCACAAGCUGGAAACUGGUGAUCAGUGUGGGGUGGAAUUCUCGGGUGCCAA	0.299
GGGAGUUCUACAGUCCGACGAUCGCCGCUACCCGGUUCAUUUAUUUGCAAUUUGAGCCAUUUAAAGACCAAUAAAAUUCCUUUUCUAUAAUGUCUGUGGUGUUCAUUGAUGUUUACAGCGUGAUAGUCUUACUUGGAAUUCUCGGGUGCCAA	0.315
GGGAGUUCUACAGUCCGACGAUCUAGAAUGUCAUUUUGCCCUCAACCUUGGUAUUUCUCCUGGGGCCCUUUUAGUCUUGUGCUGACUUUCUCCUGUCCUCUUCCAGUUUAGAAUAAGACAGGGGAGAAAAAGGUGGAAUUCUCGGGUGCCAA	0.618
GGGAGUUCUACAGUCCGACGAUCCCAGAGAAACCGGCUUUUUUUCUUAUUGCGAGCAUGUUAAAACGUUGGGAACAUGUGGGGAAUUGUAUAUUGCGCUGAAUUAACUUCUCCCGCCUCUUGUAAUGCUCUGGUGGAAUUCUCGGGUGCCAA	3.57
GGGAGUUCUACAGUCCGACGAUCUAAGGAUAGCUUCUAGGGAUAUUAGUAAUAGAUUGCCAUGAUCCUGAAGCCUCUUCUCAGAACACUGUGAAGAUAAUACUGACAGUAGAAUCAGUGAAAACAGCCUAACAUGGAAUUCUCGGGUGCCAA	0.44

Repeated from above (sample 3):
Oligonucleotide	E-score
GGCCGTAC	0.382
CCACCTGC	-0.207
AGTTCAGG	-0.159
GGTAGACC	0.0725
ATCTGATG	-0.116
ACTTTTAT	-0.165
TACAGTAA	-0.164
